Results of several laboratories.
Protocols differ between the studies behind these lines. Values joined by “and” are separate records of one study, mostly repeats; a detail may differ. Numbers after ± are the reported error.
Sequence of UniProt P14868 (whole entry, looked up): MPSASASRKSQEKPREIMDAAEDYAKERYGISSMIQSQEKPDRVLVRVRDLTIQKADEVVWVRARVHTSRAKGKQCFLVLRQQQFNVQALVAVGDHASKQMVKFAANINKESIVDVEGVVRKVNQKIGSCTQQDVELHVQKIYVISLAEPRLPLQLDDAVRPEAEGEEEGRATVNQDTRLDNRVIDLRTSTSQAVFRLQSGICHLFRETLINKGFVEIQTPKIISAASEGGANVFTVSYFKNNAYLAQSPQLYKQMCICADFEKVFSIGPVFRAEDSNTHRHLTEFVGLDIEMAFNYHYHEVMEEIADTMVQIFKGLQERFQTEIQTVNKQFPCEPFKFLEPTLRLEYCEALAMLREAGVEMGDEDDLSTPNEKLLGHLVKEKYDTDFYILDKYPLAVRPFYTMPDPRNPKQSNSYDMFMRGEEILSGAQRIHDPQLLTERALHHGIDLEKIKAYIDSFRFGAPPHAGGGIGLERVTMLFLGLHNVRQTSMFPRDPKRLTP
Sequence of UniProt P31645 (whole entry, looked up): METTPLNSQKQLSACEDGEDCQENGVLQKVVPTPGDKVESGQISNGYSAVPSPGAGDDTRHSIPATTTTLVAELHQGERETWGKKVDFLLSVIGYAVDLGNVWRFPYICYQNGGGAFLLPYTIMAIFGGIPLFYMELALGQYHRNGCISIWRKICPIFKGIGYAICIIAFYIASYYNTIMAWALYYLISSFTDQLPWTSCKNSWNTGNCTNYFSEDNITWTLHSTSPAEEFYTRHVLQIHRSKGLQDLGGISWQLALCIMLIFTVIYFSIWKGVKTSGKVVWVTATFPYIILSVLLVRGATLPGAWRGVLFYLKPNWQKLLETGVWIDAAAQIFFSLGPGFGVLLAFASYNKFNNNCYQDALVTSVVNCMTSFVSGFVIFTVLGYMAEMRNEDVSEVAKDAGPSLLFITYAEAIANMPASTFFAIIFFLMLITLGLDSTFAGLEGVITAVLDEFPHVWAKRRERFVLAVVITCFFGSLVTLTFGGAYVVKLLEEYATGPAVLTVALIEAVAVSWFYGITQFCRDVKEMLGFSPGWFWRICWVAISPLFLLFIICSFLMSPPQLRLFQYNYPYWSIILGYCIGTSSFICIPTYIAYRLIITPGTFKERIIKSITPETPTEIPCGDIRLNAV

The Cmax of `C[C@]1(CO)Cc2ncn(-c3ccc(C#N)c(Cl)c3)c2C(=O)O1` is reported as 85.1 nM (human, plasma; 2 mg single dose, geometric mean).
For `CC[C@H](C)[C@@H]1NC(=O)[C@@H]2CCCN2C(=O)[C@H](CC(C)C)NC(=O)[C@H](CC(C)C)NC(=O)CNC(=O)[C@@H](NC(=O)[C@@H](NC(=O)[C@H](CC(=O)O)NC(=O)CNC(=O)[C@@H](NC(=O)[C@H](C)NC(=O)CNC(=O)[C@H](CCCCN)NC(=O)[C@H](CC(C)C)NC(=O)[C@H](CC(C)C)NC(=O)[C@H](CCCCN)NC(=O)CNC(=O)[C@@H](NC(=O)[C@@H](N)CC(C)C)C(C)C)C(C)C)C(C)C)CSSC[C@@H](C(=O)O)NC1=O`, “log2 fold change” read -2.22 (RNA-seq, item: Acp5; mouse, traumatic brain injury model, frontal cortex and hippocampus; dose not given; reference: TBI alone).
`CC(=O)OC[C@H]1O[C@@H](Oc2cc(O)cc3cc4oc(C)cc(=O)c4c(O)c23)[C@H](O)[C@@H](O)[C@@H]1O` has a cell viability of 105 ± 10.7% (HepaRG co-cultured with HK-2; MTT; 133.33 µM, 24 h; reference: untreated control).
`COc1cccc2c1C(=O)c1c(O)c3c(c(O)c1C2=O)C[C@@](O)(C(=O)CO)C[C@@H]3O[C@H]1C[C@H](N)[C@H](O)[C@H](C)O1` has a viability of 30% (MCF7; MTT; 10 µM, 72 h, 10% FBS).
For `CN(Cc1cnc2nc(N)nc(N)c2n1)c1ccc(C(=O)N[C@@H](CCC(=O)O)C(=O)O)cc1`, the LOAEL was 0.5 µM (WA09 MTHFR C677T(+/-) forebrain rosette tissues; single rosette emergence; 7 days).
For `CC[C@H](C)[C@H](NC(=O)CNC(=O)[C@H](CCSC)NC(=O)[C@H](CO)NC(=O)[C@@H](NC(=O)[C@H](CCC(N)=O)NC(=O)[C@H](CC(C)C)NC(=O)CNC(=O)[C@@H](NC(=O)[C@H](CO)NC(=O)[C@H](CCCCN)NC(=O)[C@H](CC(C)C)NC(=O)[C@H](CCCCN)NC(=O)[C@H](CCCCN)NC(=O)[C@H](CCCCN)NC(=O)[C@@H](NC(=O)[C@H](CCCCN)NC(=O)[C@@H]1CSSC[C@H](NC(=O)[C@H](CCCCN)NC(=O)[C@@H](N)CCCCN)C(=O)N[C@@H](CCCCN)C(=O)N[C@@H](Cc2ccccc2)C(=O)N[C@@H](CC(C)C)C(=O)N1)C(C)C)C(C)C)[C@@H](C)CC)C(=O)O`, “lowest toxic concentration” read over 6.25 µM (Xenopus laevis kidney cells; MTT; 24 h).
The chance response of `O=c1ccc2ccccc2o1` is reported as 0.01% (NHEK; cell count; concentration not given, 6 h, apoptosis, necrosis, cell cycle panel).
`C[C@@H](O)[C@H](NC(=O)CNC(=O)CNC(=O)CNC(=O)c1ccc2c(c1)C(=O)OC21c2ccc(O)cc2Oc2cc(O)ccc21)C(=O)N[C@@H](Cc1ccccc1)C(=O)N[C@@H](Cc1ccccc1)C(=O)N[C@@H](Cc1ccc(O)cc1)C(=O)NCC(=O)NCC(=O)N[C@@H](CO)C(=O)N[C@@H](CCCNC(=N)N)C(=O)NCC(=O)N[C@@H](CCCCN)C(=O)N[C@@H](CCCNC(=N)N)C(=O)N[C@@H](CC(N)=O)C(=O)N[C@@H](CC(N)=O)C(=O)N[C@@H](Cc1ccccc1)C(=O)N[C@@H](CCCCN)C(=O)N[C@H](C(=O)N[C@@H](CCC(=O)O)C(=O)N[C@@H](CCC(=O)O)C(=O)N[C@@H](Cc1ccc(O)cc1)C(N)=O)[C@@H](C)O` has a transport ratio of 11% (hCMEC/D3 monolayers; BBB permeability, Transwell, item: CF-labelled compound; EGM-2 medium; concentration not given, 2 h, apical to basal; reference: fluorescence added apically).
`O=C(O)C(F)(F)C(F)(F)C(F)(F)C(F)(F)C(F)(F)C(F)(F)C(F)(F)C(F)(F)C(F)(F)F` — result for “LDH activity in medium”: 5.82 mU/mL (hTERT-RPTEC-OAT1; LDH release; culture medium; concentration not given, 24 h, 96-well plate).
`CCc1ccc(CC/C=C/c2ccc3c(c2)C(=O)CC3)cc1` has a potassium of 4.91 mM (Sprague-Dawley rat, male, serum; oral, 120 mg/kg/day, 14 days).
With `C[C@@H]1CC[C@@]2(OC1)O[C@H]1[C@@H](O)[C@H]3[C@@H]4CC[C@H]5C[C@@H](O[C@@H]6O[C@H](CO)[C@H](O[C@@H]7O[C@H](CO)[C@@H](O)[C@H](O[C@@H]8OC[C@@H](O)[C@H](O)[C@H]8O)[C@H]7O[C@@H]7O[C@H](CO)[C@H](O)[C@H](O[C@@H]8O[C@H](CO)[C@@H](O)[C@H](O)[C@H]8O)[C@H]7O)[C@H](O)[C@H]6O)[C@H](O)C[C@]5(C)[C@H]4CC[C@]3(C)[C@H]1[C@@H]2C` the LC50 was 9.68 µM (HEK293; resazurin reduction; 24 h).
The EC50 of `CCCCCCCCCC(=O)N[C@@H](Cc1c[nH]c2ccccc12)C(=O)N[C@H](CC(N)=O)C(=O)N[C@@H](CC(=O)O)C(=O)N[C@@H]1C(=O)NCC(=O)N[C@@H](CCCNC(=O)CCC(=O)N2Cc3ccccc3-c3c(nnn3CCC[C@H](NC(=O)CCCCC[N+]3=C(C=CC4=CC(=CC=C5N(C)c6ccccc6C5(C)C)CCC4)C(C)(C)c4ccccc43)C(=O)NCCCCNC(=O)CCC(=O)N3Cc4ccccc4-c4c(nnn4CCOCCOCCOCCNC(=O)CN4CCN(CC(=O)NCCNC(=O)c5cccc(O)c5O)CCN(CC(=O)NCCNC(=O)c5cccc(O)c5O)CCN(CC(=O)NCCNC(=O)c5cccc(O)c5O)CC4)-c4ccccc43)-c3ccccc32)C(=O)N[C@@H](CC(=O)O)C(=O)N[C@H](C)C(=O)N[C@@H](CC(=O)O)C(=O)NCC(=O)N[C@H](CO)C(=O)N[C@@H]([C@H](C)CC(=O)O)C(=O)N[C@@H](CC(=O)c2ccccc2N)C(=O)O[C@@H]1C` is reported as 64 µM (L929; cytotoxicity, WST-1; mouse cells; 5 days, 5% FBS DMEM).
The LDH release of `O=C(O)C(F)(F)C(F)(F)C(F)(F)F` is reported as 6.74 mU/mL and 6.29 mU/mL and 3.58 mU/mL and 4.49 mU/mL (hTERT-RPTEC-OAT1; concentration not given, 96-well plate).
The LOAEL of `CN(CCC=C1c2ccccc2CCc2ccccc21)N=O` is reported as under 1 µM (TK6 expressing CYP2B6; micronucleus induction; 24 h, without S9).
For `COc1cc2c(Oc3ccc4[nH]c(C)cc4c3F)ccnc2cc1OCC1(N)CC1`, “bone pain incidence” read 25% (paediatric recurrent refractory sarcoma; 10 mg).
`CC[C@H](C)[C@H](NC(=O)CN)C(=O)N[C@@H](CC(C)C)C(=O)N[C@@H](CC(=O)O)C(=O)N[C@@H](C)C(=O)N[C@H](C(=O)N[C@@H](CC(C)C)C(=O)N[C@@H](CC(=O)O)C(=O)N[C@@H](C)C(=O)N[C@H](C(=O)N[C@@H](CCCCN)C(=O)N[C@@H](C)C(=O)N[C@H](C(=O)N[C@@H](C)C(=O)N[C@@H](CCCCN)C(=O)N[C@@H](C)C(=O)N[C@H](C(=O)N[C@@H](CCCCN)C(=O)N[C@@H](C)C(=O)N[C@@H](CCCCN)C(=O)N[C@@H](C)C(=O)NCC(N)=O)[C@@H](C)CC)[C@@H](C)CC)[C@@H](C)CC)[C@@H](C)CC` gave a viability of 40% (HEK293; 256 µM, 24 h).
The IC50 of `COc1cc(Nc2ncc(F)c(Nc3ccc4c(n3)NC(=O)C(C)(C)O4)n2)cc(OC)c1OC` is reported as over 10 µM (Sodium-dependent serotonin transporter, 5-HT binding site (SLC6A4, Homo sapiens, UniProt P31645); binding).
`CC(C)CC(=O)OC[C@H]1O[C@@](C#N)(c2ccc3c(N)ncnn23)[C@H](O)[C@@H]1O` gave an efflux ratio of 1.46 (Caco-2 monolayer; 9 µM, 2 h, added: zosuquidar 25 µM).
`N=C(N)NCCC[C@H](NC(=O)[C@H](CCCNC(=N)N)NC(=O)[C@H](CCCNC(=N)N)NC(=O)[C@H](CCC(N)=O)NC(=O)[C@H](CCCNC(=N)N)NC(=O)[C@H](CCCNC(=N)N)NC(=O)[C@H](CCCCN)NC(=O)[C@H](CCCCN)NC(=O)[C@H](CCCNC(=N)N)NC(=O)CNC(=O)[C@H](Cc1ccc(O)cc1)NC(=O)CNC(=O)CNC(=O)CNC(=O)c1ccc2c(c1)C(=O)OC21c2ccc(O)cc2Oc2cc(O)ccc21)C(N)=O` gave a transport ratio of 2% (hCMEC/D3 monolayers; BBB permeability, Transwell, item: CF-labelled compound; EGM-2 medium; concentration not given, 1 h, apical to basal; reference: fluorescence added apically).
Under “late apoptotic cells”, `Oc1ccc(C2(c3ccc(O)cc3)c3ccccc3-c3ccccc32)cc1` is recorded as 8.25 ± 2.31% (HepG2 spheroids; annexin V-FITC/PI flow cytometry; 10 µM, 24 h).
`CC1=C(O)C(=O)C=C2C1=CC=C1[C@@]2(C)CC[C@@]2(C)[C@@H]3C[C@](C)(C(=O)O)CC[C@]3(C)CC[C@]12C` gave a confluence of 0.29 ± 0.16 (COS-7; 10 µM, 24 h, 0.1% DMSO, unit not given; reference: vehicle control).
For `COc1ccc2c(c1OC)C(=O)c1c(cc(C)c(O)c1OC)C2=O`, the cell viability was 77.5 ± 13.2% (HepaRG co-cultured with HK-2; MTT; 133.33 µM, 24 h; reference: untreated control).
`CCN(CC)CCCC[C@H](NC(=O)[C@H](CC(C)C)NC(=O)[C@H](C)NC(=O)[C@H](Cc1ccccc1)NC(=O)c1ccc(C(C)(C)C)cc1)C(=O)N[C@@H](CO)C(=O)OC` — result for cytotoxicity: “not toxic” (HEK-293T; CellTiter-Glo; up to 100 µM, 48 h).
For `O=S(=O)(O)C(F)(F)C(F)(F)C(F)(F)C(F)(F)C(F)(F)C(F)(F)C(F)(F)C(F)(F)F`, “LDH activity in medium” read 4.77 mU/mL (hTERT-RPTEC-OAT1; LDH release; culture medium; concentration not given, 24 h, 96-well plate).
For `CO[C@H]1C[C@@H]2CC[C@@H](C)[C@@](O)(O2)C(=O)C(=O)N2CCCC[C@H]2C(=O)O[C@H]([C@H](C)C[C@@H]2CC[C@@H](OC(=O)NCCOCCOCCOCCOCCOCCOCCOCCOCCC(=O)N3CCc4cc(Cn5nc(-c6ccc7oc(N)nc7c6)c6c(N)ncnc65)ccc4C3)[C@H](OC)C2)C[C@@H](O)[C@H](C)/C=C(\C)[C@@H](O)[C@@H](OC)C(=O)[C@H](C)C[C@H](C)/C=C/C=C/C=C/1C`, “any TEAE incidence” read 100% (phase 1 dose escalation; advanced solid tumour patients; intravenous, 10 mg weekly, any grade).
With `N#C[C@H](C[C@@H]1CCCNC1=O)NC(=O)[C@H](CC1CC1)NC(=O)c1cc2cccc(Cl)c2[nH]1` the mRNA level was at most 3.3 fold (cryopreserved human hepatocytes; item: CYP2C19; 10 µM, 72 h; reference: vehicle).
The CC50 of `CC[C@H](C)[C@H](NC(=O)[C@H](CC(C)C)NC(=O)[C@@H]1CCCN1C(=O)[C@@H]1CCCN1C(=O)[C@H](CCCCN)NC(=O)[C@H](CO)NC(=O)[C@@H](NC(=O)[C@@H](NC(=O)[C@H](CC(=O)O)NC(=O)[C@H](CC(C)C)NC(=O)[C@H](CCCCN)NC(=O)[C@H](Cc1ccc(O)cc1)NC(=O)[C@H](CCSC)NC(=O)[C@H](CCCCN)NC(=O)[C@@H](N)[C@@H](C)O)C(C)C)C(C)C)C(=O)N[C@@H](CC(N)=O)C(=O)NCC(=O)N[C@@H](CC(C)C)C(=O)N[C@@H](Cc1ccc(O)cc1)C(=O)N[C@H](C(=O)N[C@@H](CC(N)=O)C(=O)N[C@@H](CCCNC(=N)N)C(=O)N[C@H](C(=O)N[C@H](C(=O)N[C@H](C(=O)N[C@@H](CCCCN)C(=O)N[C@@H](C)C(=O)N[C@H](C(=O)N[C@@H](C)C(=O)N[C@H](C(=O)N[C@@H](CCCNC(=N)N)C(=O)N[C@@H](Cc1c[nH]cn1)C(=O)N[C@@H](CO)C(=O)N[C@@H](CCCCN)C(=O)N[C@@H](CCCCN)C(=O)N[C@@H](Cc1c[nH]cn1)C(=O)N[C@@H](Cc1ccccc1)C(=O)O)C(C)C)[C@@H](C)O)[C@@H](C)CC)C(C)C)[C@@H](C)O)[C@@H](C)O` is reported as 119 µM (HaCaT; cell viability, MTT; 24 h).
For `C[C@H]1CN(c2n[nH]c3nc(N[C@H]4CC[C@H](NS(=O)(=O)CCC(F)(F)F)CC4)ncc23)CCO1`, the remaining binding was 0.96 (Aspartate--tRNA ligase, cytoplasmic (DARS1, Homo sapiens, UniProt P14868); Kinobeads competition, item: DARS; 0.16 µM, unit not given; reference: vehicle).
For `Cc1cc(C(C)(C)c2ccc(O)c(C)c2)ccc1O`, the necrotic cells was 6.4 ± 2.12% (HepG2 spheroids; annexin V-FITC/PI flow cytometry; 0.1 µM, 24 h).

Excerpt of the above:
`CC[C@H](C)[C@H](NC(=O)CN)C(=O)N[C@@H](CC(C)C)C(=O)N[C@@H](CC(=O)O)C(=O)N[C@@H](C)C(=O)N[C@H](C(=O)N[C@@H](CC(C)C)C(=O)N[C@@H](CC(=O)O)C(=O)N[C@@H](C)C(=O)N[C@H](C(=O)N[C@@H](CCCCN)C(=O)N[C@@H](C)C(=O)N[C@H](C(=O)N[C@@H](C)C(=O)N[C@@H](CCCCN)C(=O)N[C@@H](C)C(=O)N[C@H](C(=O)N[C@@H](CCCCN)C(=O)N[C@@H](C)C(=O)N[C@@H](CCCCN)C(=O)N[C@@H](C)C(=O)NCC(N)=O)[C@@H](C)CC)[C@@H](C)CC)[C@@H](C)CC)[C@@H](C)CC` gave a viability of 40% (HEK293; 256 µM, 24 h).
The LOAEL of `CN(CCC=C1c2ccccc2CCc2ccccc21)N=O` is reported as under 1 µM (TK6 expressing CYP2B6; micronucleus induction; 24 h, without S9).
`O=C(O)C(F)(F)C(F)(F)C(F)(F)C(F)(F)C(F)(F)C(F)(F)C(F)(F)C(F)(F)C(F)(F)F` — result for “LDH activity in medium”: 5.82 mU/mL (hTERT-RPTEC-OAT1; LDH release; culture medium; concentration not given, 24 h, 96-well plate).
